Measurements collected from several papers.
Each line is one published result; not all experiments were run side by side. ± marks the error that the study gave.

Molecule	tested on	test	system	conditions	measurement	value
CN(C)c1ccc(N(Cc2cc(Cl)cs2)C(=O)Cc2cncc3ccccc23)cc1	SARS-CoV-2	viral replication	Calu-3, Omicron BA.1	–	EC50	600 nM
Cn1cnc(Cn2c(=O)[nH]/c(=N\c3cc4cn(C)nc4cc3Cl)n(Cc3cc(F)c(F)cc3F)c2=O)n1	SARS-CoV-2	viral replication	Vero C1008, WT	–	EC50	140 nM
COc1cc2c(cc1N1C[C@@H](C)N[C@@H](C)C1)N(C(=O)c1ccc(-c3ccc(-c4noc(C)n4)cc3C)cc1)CC2	SARS-CoV-2	viral replication	293T-ACE2, USA-WA1/2020	24 h	EC50	290 nM
NC(CO)(CO)CCc1ccc(Sc2cccc(OCc3ccccc3)c2)cc1Cl	SARS-CoV-2	viral replication, GFP plate reader screen	–	cell-based	EC50	3310 nM
[N-]=[N+]=N[C@]1(CO)O[C@@H](n2ccc(N)nc2=O)[C@@H](F)[C@@H]1O	SARS-CoV-2	viral replication, imaging	Calu-3, Omicron BA.1	–	EC50	> 50000 nM
OCC1=C(F)[C@@H](n2nnc3c(NO)ncnc32)[C@H](O)[C@@H]1O	SARS-CoV-2	viral replication, spike protein immunostaining	Vero	48 h	EC50	> 100000 nM
O=C(NCc1ccc(F)cc1)C(=O)NCC(c1cccnc1)N1CCN(c2ccccc2)CC1 (stereo not shown)	SARS-CoV-2	plaque formation, plaque reduction	Vero E6	72 h	EC50	20900 ± 8500 nM
CC(C)CC(NC(=O)OCc1ccccc1)C(=O)NC(C(=O)NCC(=O)C=[N+]=[N-])C(C)C (stereo not shown)	SARS-CoV-2	viral replication	Huh-7-ACE2, USA-WA1/2020	24 h	EC50	6.9 nM
OCCN1CCN(CCC=C2c3ccccc3Sc3ccc(C(F)(F)F)cc32)CC1	SARS-CoV-2	viral replication, high-content imaging screen	–	cell-based	EC50	> 100000 nM
COc1ccc2cc(-c3cc(-c4cc(Cl)cc(Cl)c4)nn3[C@@H](C)c3ccc(C(=O)NCCC(=O)O)cc3)ccc2c1	SARS-CoV-2	virus-induced cytopathic effect	Vero E6, USA-WA1/2020	72 h	EC50	3160 nM
COC(=O)C1=C(CN2CCN(C(=O)OC(C)(C)C)CC2)NC(=O)NC1c1ccccc1 (stereo not shown)	SARS-CoV-2	plaque formation, plaque reduction	Vero E6	72 h	EC50	36000 ± 13400 nM
CC(C)(C)[C@H](NC(=O)C(F)(F)F)C(=O)N1C[C@H]2[C@@H]([C@H]1C(=O)N[C@H](C#N)C[C@@H]1CCNC1=O)C2(C)C	SARS-CoV-2	viral replication	Calu-3, Omicron BA.2	–	EC50	900 nM
CCN(CCO)CCCC(C)Nc1ccnc2cc(Cl)ccc12 (stereo not shown)	SARS-CoV-2	viral replication	Omicron	–	EC50	2600 ± 360 nM
COc1ccc(C(=O)Nc2ccccc2C(=O)NC(C(=O)Nc2ccccc2)C(C)C)cc1 (stereo not shown)	SARS-CoV-2	plaque formation, plaque reduction	Vero E6	72 h	EC50	> 50000 nM
CC(C)=CCC/C(C)=C/Cc1c(O)cc2oc3c(O)cccc3c(=O)c2c1O	SARS-CoV-2	viral replication	Calu-3, mNeonGreen reporter	–	EC50	27900 ± 1300 nM
O=C(Nc1ccc2c(c1)OCO2)c1nnc(C(=O)N2CCCC(C(=O)NCc3ccccc3)C2)s1 (stereo not shown)	SARS-CoV-2	plaque formation, plaque reduction	Vero E6	72 h	EC50	7100 ± 3500 nM
O=C(Nc1ccccc1F)c1cc2c(=O)n3ccccc3nc2n1Cc1ccccc1	SARS-CoV-2	viral replication, qPCR	Vero E6	–	EC50	13.8 ± 1.98 nM
CCC(CC)COC(=O)[C@H](C)N[P@](=O)(OC[C@H]1O[C@@](C#N)(c2ccc3c(N)ncnn23)[C@H](O)[C@@H]1O)Oc1ccccc1	SARS-CoV-2	viral replication, RT-qPCR	VeroE6, WK-521	–	EC50	5000 ± 50 nM
O=C(Nc1ccccc1C(=O)NCc1ccccc1)c1cc(S(=O)(=O)N2CCOCC2)ccc1F	SARS-CoV-2	plaque formation, plaque reduction	Vero E6	72 h	EC50	> 50000 nM
CNC(=O)[C@@H](c1ccccc1)N1CCc2cc(OC)c(OC)cc2[C@@H]1CCc1ccc(C(F)(F)F)cc1	SARS-CoV-2	viral replication, GFP plate reader screen	–	cell-based	EC50	18600 nM
Fc1ccc(-c2ccc(CN3CCN(c4cccc5ccoc45)CC3)[nH]2)cc1	SARS-CoV-2	viral replication	Huh-7-ACE2, USA-WA1/2020	24 h	EC50	2700 nM
CC(C)(C)[C@H](NC(=O)C(F)(F)F)C(=O)N1C[C@@H]2CCC[C@@H]2[C@H]1C(=O)N[C@@H](C[C@@H]1CCNC1=O)C(=O)c1nc2cc(F)ccc2s1	SARS-CoV-2	viral replication	Vero C1008, JPN/TY/WK-521 (ancestral Wuhan)	–	EC50	30 nM
CC(C)[C@H](NC(=O)[C@H](CCCNC(=N)N)NC(=O)N[C@@H](Cc1ccccc1)C(=O)O)C(=O)N[C@H](C=O)CCCNC(=N)N	SARS-CoV-2	viral replication	Vero C1008, prototype	–	EC50	31500 nM
O=c1c2ccccc2[se]n1-c1ccccc1	SARS-CoV-2	viral replication, RT-qPCR	Vero	48 h	EC50	12000 nM
C[C@H](Cc1ccc(O)c(O)c1)[C@@H](C)Cc1ccc(O)c(O)c1	SARS-CoV-2	viral replication, high-content imaging screen	–	cell-based	EC50	> 100000 nM
calpain inhibitor III	SARS-CoV-2	viral replication	293T-ACE2, USA-WA1/2020	–	EC50	21 nM

Molecule	tested on	test	system	conditions	measurement	value
CC(C)OC(=O)[C@H](C)N[P@](=O)(CO[C@H](C)Cn1cnc2c(N)ncnc21)Oc1ccccc1	SARS-CoV-2	viral replication	Vero	48 h	EC50	> 20000 nM
O=C[C@H](C[C@@H]1CCNC1=O)NC(=O)[C@H](CC1CCCCC1)NC(=O)c1cc2ccccc2[nH]1	SARS-CoV-2	viral replication	Vero E6, 2019-nCoV-WIV04	20% human serum	EC50	1910 nM
CCC(CC)COC(=O)[C@H](C)N[P@](=O)(OC[C@H]1O[C@@](C#N)(c2ccc3c(N)ncnn23)[C@H](O)[C@@H]1O)Oc1ccccc1	SARS-CoV-2	viral replication	Calu-3	48 h	EC50	80 ± 20 nM
CC[C@H](NC(=O)[C@H](CS(=O)(=O)CC1CC1)N[C@@H](c1ccc(F)cc1)C(F)(F)F)C(=O)C(=O)NC1CC1	SARS-CoV-2	viral replication	Huh-7-ACE2, USA-WA1/2020	24 h	EC50	52 nM
CSc1ccc(N(Cc2cc(Cl)cs2)C(=O)Cc2cncc3ccccc23)cc1	SARS-CoV-2	viral replication	Calu-3, Omicron BA.1	–	EC50	13200 nM
CC[C@H](C)[C@H](NC(=O)[C@H](CC(C)C)NC(=O)[C@H](Cc1c[nH]c2ccccc12)NC(=O)[C@H](CCC(N)=O)NC(=O)[C@@H](NC(=O)[C@H](Cc1ccccc1)NC(=O)[C@H](C)NC(=O)[C@H](CCCCNC(=O)COCCOCCNC(=O)COCCOCCNC(=O)CC[C@H](NC(=O)CCCCCCCCCCCCCCCCCCC(=O)O)C(=O)O)NC(=O)[C@H](CCC(N)=O)NC(=O)[C@H](C)NC(=O)[C@@H](NC(=O)[C@H](CCCCN)NC(=O)[C@H](CC(=O)O)NC(=O)[C@H](CC(C)C)NC(=O)C(C)(C)NC(=O)[C@@H](NC(=O)[C@H](CO)NC(=O)[C@H](Cc1ccc(O)cc1)NC(=O)[C@H](CC(=O)O)NC(=O)[C@H](CO)NC(=O)[C@@H](NC(=O)[C@H](Cc1ccccc1)NC(=O)[C@@H](NC(=O)CNC(=O)[C@H](CCC(=O)O)NC(=O)C(C)(C)NC(=O)[C@@H](N)Cc1ccc(O)cc1)[C@@H](C)O)[C@@H](C)O)[C@@H](C)CC)[C@@H](C)CC)C(C)C)C(=O)N[C@@H](C)C(=O)NCC(=O)NCC(=O)N1CCC[C@H]1C(=O)N[C@@H](CO)C(=O)N[C@@H](CO)C(=O)NCC(=O)N[C@@H](C)C(=O)N1CCC[C@H]1C(=O)N1CCC[C@H]1C(=O)N1CCC[C@H]1C(=O)N[C@@H](CO)C(N)=O	–	–	healthy subjects	4.5 mg, multiple ascending dose	severe hypoglycaemia	0%
CCC(CC)COC(=O)[C@H](C)N[P@](=O)(OC[C@H]1O[C@@](C#N)(c2ccc3c(N)ncnn23)[C@H](O)[C@@H]1O)Oc1ccccc1	SARS-CoV-2	cytopathic effect	Vero, UC-1074	5 days	EC50	1100 ± 100 nM
CCN(CC)CCCNc1cc(OC)cc2cccnc12	SARS-CoV-2	viral replication, GFP plate reader screen	BetaCov/Belgium/GHB-03021/2020	cell-based	EC50	24600 nM
CC(C)(C)[C@H](NC(=O)C(F)(F)F)C(=O)N1C[C@H]2[C@@H]([C@H]1C(=O)N[C@H](C#N)C[C@@H]1CCNC1=O)C2(C)C	SARS-CoV-2	viral replication, qRT-PCR of viral RNA	Caco-2, Washington	–	EC50	100 ± 80 nM
CC(=O)NCC(=O)NC1(C(=O)NC(c2ccccc2)c2ccccc2)CCCCC1	SARS-CoV-2	plaque formation, plaque reduction	Vero E6	72 h	EC50	> 50000 nM
CC(C)C[C@H](NC(=O)c1cc2c(F)cc(F)cc2[nH]1)C(=O)N[C@@H](C[C@@H]1CCNC1=O)C(=O)c1nc2cc(F)ccc2s1	SARS-CoV-2	viral replication, RT-qPCR	VeroE6, WK-521	–	EC50	2800 ± 200 nM
CCC(CC)COC(=O)[C@H](C)N[P@](=O)(OC[C@H]1O[C@@](C#N)(c2ccc3c(N)ncnn23)[C@H](O)[C@@H]1O)Oc1ccccc1	SARS-CoV-2	viral replication, qRT-PCR of viral RNA	Caco-2, Washington	–	EC50	20 ± 10 nM
Cc1cccn2c(=O)c3cc(C(=O)Nc4ccc(N(C)C)cc4)n(C)c3nc12	SARS-CoV-2	viral replication, qPCR	Vero E6	–	EC50	37.6 ± 4.23 nM
COc1cc(Nc2ccnc3ccc(Br)cc23)cc(OC)c1OC	SARS-CoV-2	viral replication	Vero E6, USA-WA1/2020	–	EC50	200 nM
NCC[C@H](Oc1ccc(C(F)(F)F)cc1)c1ccccc1	SARS-CoV-2	viral replication, GFP plate reader screen	–	cell-based	EC50	7590 nM
CC(C)(C)OC(=O)Nc1cccn([C@@H](CC2CC2)C(=O)N[C@@H](C[C@@H]2CCNC2=O)C(=O)C(=O)NCc2ccccc2)c1=O	SARS-CoV-2	viral replication	–	–	EC50	800 to 3400 nM
N=C(N)c1ccc(C=C2c3ccccc3-c3ccccc32)cc1	SARS-CoV-2	viral replication, GFP plate reader screen	–	cell-based	EC50	3470 nM
COc1ccc(-c2cc(C(F)(F)F)n3ncc(C(=O)Nc4sc5c(c4C(N)=O)CCCC5)c3n2)cc1	SARS-CoV-2	plaque formation, plaque reduction	Vero E6	72 h	EC50	9800 ± 4500 nM
COc1cc(Nc2ccnc3ccc(Br)cc23)cc(OC)c1OC	SARS-CoV-2	–	VeroE6/TMPRSS2	24 h	EC50	750 nM
C=CC(=O)Nc1cc(Nc2nccc(-c3cn(C)c4ccccc34)n2)c(OC)cc1N(C)CCN(C)C	SARS-CoV-2	viral replication, high-content imaging screen	–	cell-based	EC50	> 100000 nM
CN(C)CCOc1ccc(/C(=C(/CCCl)c2ccccc2)c2ccccc2)cc1	SARS-CoV-2	–	Vero C1008, WIV04	24 h	EC50	2500 nM
Cc1ccc(NC(=O)c2cc3c(=O)n4cccc(C)c4nc3n2C)cc1Cl	SARS-CoV-2	viral replication	Vero E6	–	EC50	104 nM
CC(C)(C)[C@H](NC(=O)C(F)(F)F)C(=O)N1C[C@H]2[C@@H]([C@H]1C(=O)N[C@H](C#N)C[C@@H]1CCNC1=O)C2(C)C	SARS-CoV-2	viral replication	Vero C1008, BA.5	–	EC50	810 nM
CC(C)/N=c1\cc2n(-c3ccc(Cl)cc3)c3ccccc3nc-2cc1Nc1ccc(Cl)cc1	SARS-CoV-2	viral replication	Huh-7-ACE2, USA-WA1/2020	24 h	EC50	490 nM
N#C[C@@]1(c2ccc3c(N)ncnn23)O[C@H](CO)[C@@H](O)[C@H]1O	SARS-CoV-2	viral RNA copies	Vero C1008, VOC-202012/01	48 h, 50% decrease endpoint	EC50	16000 ± 810 nM
Cc1ccc(NS(=O)(=O)c2cccc(C(=O)NC3CCN(c4ncnc5[nH]cnc45)CC3)c2)cc1	SARS-CoV-2	viral replication	A549-ACE2, Wuhan-Hu-1	24 h	EC50	16200 nM

For quick reference, copied from above:
Molecule	tested on	test	system	conditions	measurement	value
CSc1ccc(N(Cc2cc(Cl)cs2)C(=O)Cc2cncc3ccccc23)cc1	SARS-CoV-2	viral replication	Calu-3, Omicron BA.1	–	EC50	13200 nM
O=C(Nc1ccc2c(c1)OCO2)c1nnc(C(=O)N2CCCC(C(=O)NCc3ccccc3)C2)s1 (stereo not shown)	SARS-CoV-2	plaque formation, plaque reduction	Vero E6	72 h	EC50	7100 ± 3500 nM
CCN(CCO)CCCC(C)Nc1ccnc2cc(Cl)ccc12 (stereo not shown)	SARS-CoV-2	viral replication	Omicron	–	EC50	2600 ± 360 nM
OCC1=C(F)[C@@H](n2nnc3c(NO)ncnc32)[C@H](O)[C@@H]1O	SARS-CoV-2	viral replication, spike protein immunostaining	Vero	48 h	EC50	> 100000 nM
N=C(N)c1ccc(C=C2c3ccccc3-c3ccccc32)cc1	SARS-CoV-2	viral replication, GFP plate reader screen	–	cell-based	EC50	3470 nM
COC(=O)C1=C(CN2CCN(C(=O)OC(C)(C)C)CC2)NC(=O)NC1c1ccccc1 (stereo not shown)	SARS-CoV-2	plaque formation, plaque reduction	Vero E6	72 h	EC50	36000 ± 13400 nM
CN(C)CCOc1ccc(/C(=C(/CCCl)c2ccccc2)c2ccccc2)cc1	SARS-CoV-2	–	Vero C1008, WIV04	24 h	EC50	2500 nM
Cc1ccc(NC(=O)c2cc3c(=O)n4cccc(C)c4nc3n2C)cc1Cl	SARS-CoV-2	viral replication	Vero E6	–	EC50	104 nM
